Assay results collected from several papers.
A part holds a random share of what one study measured.

Sample 1 — method: RNA Bind-n-Seq; form: RNA; medium: in vitro; tested at: 365 nM; reference: no-protein control; reading: higher = stronger binding
Target: RNA binding protein fox-1 homolog 2, RRM domain, GST-SBP tag (RBFOX2, Homo sapiens, UniProt O43251-10, residues 100-194)
Notes: natural RNA segment, single round, ends assumed
Shared flanks, not repeated: GGGAGUUCUACAGUCCGACGAUC … UGGAAUUCUCGGGUGCCAA
Construct (chain): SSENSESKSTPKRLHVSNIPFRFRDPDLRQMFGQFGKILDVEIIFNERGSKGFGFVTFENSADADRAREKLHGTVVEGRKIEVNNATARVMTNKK
| Oligonucleotide | RBNS enrichment (R) |
| --- | --- |
| GACCAUUUCACCCAUUGCCCCAUCACAGCAAUAAUGUCCCCGCUACUGGGGACCCGAGCCAGCCAGGCCAUGUUUGCAGGGAAGGAUGCCAAGCAGGGCCUGCCCUGACA | 0.677 |
| GAAACUGCCGUAUAGUCACUGUUUUAAAAACCCCGGAGGGGCUGUAUUAAUUUGUAUUGCCCCAUGGCUGACAAAAGCCUUUUUUUUUGGUUUUGAUUUUUUUUUUUUUG | 1.39 |
| AAAAAAUGUUUACACUCUGCAGAUUGAUUUUUUUUUUUUAGUACUGUGGCUUUCUUUUCCUAUUUUAUGAAAAAAAUGAUAAUCUUUUUGUAAAAUUGUCUGUGAAAUAU | 0.707 |
| GCUUAUCAUCCAAUCCCCUUUAACUGGGAUAAGAAACCAAAGGAGGAAAUAUUCUCUAUGGUAAUCCUUGCCAGAGGGUCUCCAAAGGAAGCUAACCGCUGGCCCCGAAU | 0.338 |
| UCUAAAUGAGGCCUAAAUGUGUGAAGUGCGAUUUCUGCUUUUGUGUACCCCACCACCCCAUUACCACAGCUGCCUUUGUGUGUUUGUGUCAAUAAAAAGCCAAACCCUGG | 0.419 |
| UCAGUUGCUUUUGUCGAACAUCAGCAUCAUGUUUUAAAUGUUGUGGUCCUGGAUGCCCAGCUGGGCUACCCAGGUGCCAGCAUGUUUGCAUGGGAGGAAAGGCUCCACUU | 1.79 |
| GUUUCGAAUAUGCAGAUGGCCUUGGAGCCUUAAGACAGGUGCCGGGCUGGCUGCAGACAGGGUGGCUGAGGGGAGGGGCAAUCGAGUCCCGAGUCCUUGGCUUAGCAUGG | 7.36 |
| CAAAUACACAGAGCCAGCUCUACCCACUCCUAAGAGCAGAGGCCAACUCUAAAGAAAGGUCUCAGGUUACACAGGCCCCCCCACUUAUGUUUUCAGGGGAUGCCAUUUAU | 0.361 |

Sample 2 — method: RNA Bind-n-Seq; form: RNA; medium: in vitro; tested at: not given; notes: RNA with constant flanks, ends assumed; reference: input RNA pool; reading: higher = stronger binding
Target: RING finger protein unkempt homolog, zinc fingers 1-6, GST-SBP tag (UNK, Homo sapiens, UniProt Q9C0B0, residues 30-357)
Shared flanks, not repeated: GGGAGUUCUACAGUCCGACGAUC … CAACAGAGGAUUGAGCAUCA
Residues (chain): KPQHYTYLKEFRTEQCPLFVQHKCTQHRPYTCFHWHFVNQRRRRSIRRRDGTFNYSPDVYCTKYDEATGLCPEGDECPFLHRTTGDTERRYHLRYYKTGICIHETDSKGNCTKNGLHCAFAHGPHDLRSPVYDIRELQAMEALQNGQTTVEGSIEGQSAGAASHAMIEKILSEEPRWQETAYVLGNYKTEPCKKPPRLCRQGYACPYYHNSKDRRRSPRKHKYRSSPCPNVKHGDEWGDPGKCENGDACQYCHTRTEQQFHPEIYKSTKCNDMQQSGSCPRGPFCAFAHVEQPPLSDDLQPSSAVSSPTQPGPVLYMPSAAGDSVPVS
| Oligonucleotide | bound/input enrichment [ratio] |
| --- | --- |
| GCCCAUGAGAAGCUAGACAAUAAGAAGGAGUGUUUAGAAGACGUCACUGCUGUGUGUAUAUCCGAAGGGUUUCAAAAUGAGCAGAGCAUGCUGUUAGCUGAUAAAGUUCUUAAACUUCUU | 0.278 |
| AAAAAUUUGCAAGAAGAAAUUGACGCCUUAGAAUCCAGAGUGGAAUCAAUUCAGCGAGUGUCCGCAGAUUUGAAAGUUCAGUUGUAUGCAAAAUUCGGGAGCAACAUAAACCUUGAAGCU | 0.243 |
| GGAGACAACAAACAAACCACUGUGUCGAACUCCCAGCAGGCUUACCAGGAAGCAUUUGAAAUCCGUAAGAAAGAAAUGCAGCCUACACACCCAAUUCGUCUUGGUCUGGCACUAAAUUUC | 0.177 |
| UCAACCUAUGCACAGUGAGCUGGUUAAGAAGAUCCUAGGCAACAAAGCUACCUUCAGCCCUACCGUCACUUUGGAACCUAGAAGAAGAAAAUUCCACAAACCAAUUACCAUGACCAUUCC | 0.415 |
| AGUGAAUGAGGUGGAGCUUCUGGUGAUGAAGGCCCUUUCGGUGGGGCUGGUGAAAGGCAGUACCGACGAGGUGGACAAACGAGUCCACAUGACCUGGGUGCAGCCCCGAGUGUUGGAUUU | 0.092 |
| AUCUAUUCCCCUCUUUUUAUUUCUGGGGCCGGUUUUUUCCUUUUUUUUUUAAUCCCUCCUCCGCUUUUUAUGCGCUCAUAAUCAAUUGUACCCAUUCCCUACAUAACGGGAGCAGUGAUC | 2.95 |
| AAAGGUUUCCUGCUACAGGAGGGGAGAAAGCUGUGCAGUCUCUUGGGAAAGGACUUUUCCCUCCGAGUGGGCCUCGGGGCUGCACUCCAGAGUUGUGGCAAUCUGCCUAAGUUUCCAAAC | 0.108 |
| UAGUGAAUGGUUUCCCCAGUGUAUAUGAAUGUUUUAAGUGUCUCCAAUAGCUUAUGCAGUCCCGGAGCUUUCCAAUACUCAUUUAAUUAAGAUUUAAUCAUUUGCUAAUGGAAAUCUUAC | 0.614 |

Sample 3 — method: protein binding microarray; form: double-stranded DNA, one strand shown; medium: in vitro; tested at: not given; reference: not given; reading: higher = stronger binding
Target: Histone acetyltransferase KAT6A, both winged helices, GST fusion (KAT6A, Homo sapiens, UniProt Q92794, residues 1-181)
Notes: 8-mer, flanks averaged, mean of 2 arrays, mostly near background
Target sequence (chain): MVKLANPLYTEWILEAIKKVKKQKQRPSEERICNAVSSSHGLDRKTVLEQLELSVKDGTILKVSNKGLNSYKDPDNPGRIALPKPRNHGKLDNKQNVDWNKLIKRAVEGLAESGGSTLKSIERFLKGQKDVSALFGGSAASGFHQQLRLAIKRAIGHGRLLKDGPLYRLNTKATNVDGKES
| Oligonucleotide | E-score |
| --- | --- |
| AATGATAC | -0.0515 |
| ATCCCATA | -0.0777 |
| CTAACATC | -0.0707 |
| CCTGACTA | -0.1 |
| CCATAGTA | -0.157 |
| CTCCTGAA | -0.0143 |
| GCTTCGAA | -0.13 |
| CCTTTTAA | -0.165 |
| ATGACTGC | -0.0901 |

Mixed results
| Molecule | target | assay | test system | conditions | scale | measurement | value |
| --- | --- | --- | --- | --- | --- | --- | --- |
| PhoQ, residues 284 288 289 292 302 303 NLGVHL | PhoP, residues 12 14 15 18 19 GQALL (Escherichia coli, UniProt P23836) | Sort-seq, measured: YFP reporter | E. coli | PhoQ-PhoP variant library, together with: 10 µM Mg2+ | reference: high Mg2+ state, higher = stronger signaling | fold induction | 1.67 |
